{"data": "Experimental data collected from several papers", "note": "Protocols differ between the studies behind these lines. Values joined by “and” are separate records of one study, mostly repeats; a detail may differ. Numbers after ± are the reported error."}
{"SMILES": "CCc1nc(C(N)=O)c(Nc2ccc(N3CCC(N4CCN(C)CC4)CC3)c(OC)c2)nc1NC1CCOCC1", "system": "female FVB mice, OCT1/2 knockout, plasma", "conditions": "oral, 10 mg/kg, single dose", "Cmax": "406 ± 41 ng/mL"}
{"SMILES": "Nc1ncn([C@H]2C[C@H](O)[C@@H](CO)O2)c(=O)n1", "test": "UHPLC-MS/MS", "system": "C57BL/6 mice, female, plasma", "conditions": "oral, 0.4 mg/kg", "Cmax": "142 ng/mL"}
{"SMILES": "CNC(=O)c1cc(Oc2ccc(NC(=O)Nc3ccc(Cl)c(C(F)(F)F)c3)cc2)ccn1", "system": "female Oatp1b2(-/-) mice, DBA1/lacJ, plasma", "conditions": "oral, 10 mg/kg, geometric mean, with: rifampin 20 mg/kg i.v.", "Cmax": "5930 ng/mL"}
{"SMILES": "CC1(C)CC[C@]2(C(=O)O)CC[C@]3(C)C(=CC[C@@H]4[C@@]5(C)C[C@@H](O)[C@H](OC(=O)/C=C/c6ccc(O)cc6)C(C)(C)[C@@H]5CC[C@]43C)[C@@H]2C1 (relative stereo)", "system": "C57BL/6 mice, plasma", "conditions": "intraperitoneal, 85 µmol/kg single dose", "Cmax": "79600 nM"}
{"SMILES": "O=[N+]([O-])c1ccc(-c2ccc(O)cc2)c2cccnc12", "system": "ICR mice male, plasma", "conditions": "oral, 5 mg/kg", "Cmax": "65.9 ng/mL"}
{"SMILES": "NC(=O)c1cc(Oc2ccc(NC(=O)Nc3ccc(Cl)c(C(F)(F)F)c3)c(F)c2)cc[n+]1[O-]", "system": "Oatp1b2 knockout mice, plasma", "conditions": "oral, 10 mg/kg regorafenib", "Cmax": "27.9 ± 7.17 ng/mL"}
{"SMILES": "Cc1c(C(=O)O)ccc2c3n(nc12)[C@@H]1[C@H](C3)N(CC2CC2)[C@@]2(C(=O)Nc3cc(Cl)ccc32)[C@H]1c1cccc(Cl)c1F", "system": "female BALB/c nude mice, SJSA-1 xenograft, plasma", "conditions": "oral, 1 mg/kg twice daily", "Cmax": "1520 nM and 1240 nM and 1480 nM and 1510 nM and 1080 nM"}
{"SMILES": "Cc1cc2sc(N)nc2c2cccnc12", "system": "female BALB/c mice, plasma", "conditions": "intraperitoneal, 30 mg/kg", "Cmax": "6300 ng/mL"}
{"SMILES": "CCN1CCN(Cc2ccc(NC(=O)c3ccc(C)c(NC(=O)c4cncc(-c5cccs5)c4)c3)cc2C(F)(F)F)CC1", "system": "C57BL/6 mice, epithelial lining fluid", "conditions": "intraperitoneal, 10 mg/kg", "Cmax": "1490 ng/mL"}
{"SMILES": "O=S(=O)(c1ccc(-c2ccc3nccc(Nc4ccncn4)c3c2)cc1)N1CCOCC1", "system": "BALB/c mice female, brain", "conditions": "intraperitoneal, 10 mg/kg", "Cmax": "181 ng/mL"}
{"SMILES": "Cn1c(C(F)(F)F)cc(=O)n(-c2cc(Oc3cccnc3OCC(=O)O)c(Cl)cc2F)c1=O", "system": "Crl:CD1(ICR) mice, female, plasma", "conditions": "oral diet, 5 ppm in diet, day 1, 90-day toxicity study", "Cmax": "28.5 ng/mL"}
{"SMILES": "CCN(c1cc(-c2ccc(CN3CCOCC3)cc2)cc(C(=O)NCc2c(C)cc(C)[nH]c2=O)c1C)C1CCOCC1", "system": "female CB17 SCID mice, HT-1376 xenograft, plasma", "conditions": "75 mg/kg, day 1", "Cmax": "9530 ng/mL"}
{"SMILES": "COc1cc([C@@H]2[C@H]3CO[C@@]4(O)C(=O)[C@@H]2C=C([C@H]2Oc5cc(O)cc(O)c5C(=O)[C@@H]2O)[C@@H]34)ccc1O", "system": "FVB wild-type mice, plasma", "conditions": "oral gavage, 500 mg/kg silymarin", "Cmax": "50 nM"}
